Measurements gathered from unrelated publications.
Numbered parts are unrelated; each lists some results of a single study.

Study 1
Target: Interferon regulatory factor 7, full length, phosphomimetic (IRF7, Homo sapiens, UniProt Q92985, residues 1-503, S471D/S472D/S475D/S476D/S477D/S483D/S484D/S487D)
Sequence of UniProt Q92985 (whole entry, unmodified, looked up): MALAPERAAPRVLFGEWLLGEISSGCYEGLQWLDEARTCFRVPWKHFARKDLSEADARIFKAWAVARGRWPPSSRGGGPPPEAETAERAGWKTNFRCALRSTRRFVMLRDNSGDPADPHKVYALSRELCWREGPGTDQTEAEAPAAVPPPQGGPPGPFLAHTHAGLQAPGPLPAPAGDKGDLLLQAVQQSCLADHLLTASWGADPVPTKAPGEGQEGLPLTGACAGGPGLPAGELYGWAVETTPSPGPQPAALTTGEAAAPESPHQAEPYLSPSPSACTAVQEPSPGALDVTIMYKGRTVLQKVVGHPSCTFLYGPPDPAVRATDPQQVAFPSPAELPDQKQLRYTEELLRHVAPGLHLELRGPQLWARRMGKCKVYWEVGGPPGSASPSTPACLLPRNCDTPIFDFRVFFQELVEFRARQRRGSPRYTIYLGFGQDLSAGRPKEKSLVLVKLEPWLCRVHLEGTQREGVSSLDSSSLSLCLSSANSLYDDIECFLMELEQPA
Technique: protein-binding microarray
Molecule type: double-stranded DNA, one strand shown
Medium: in vitro
Tested at: 2200 nM top
Setting: 60-bp whole probe
With: salmon DNA 0.4 mg/ml
Relative to: random background probes
Reading: higher = stronger binding
Constant ends, left off below: GCCTAGCAC … GTCTTGATTCGCTTGACGCTGCTG
| Sequence | fitted relative affinity [z-score] |
| --- | --- |
| GACGGTATCGGTATTGGGACGTGCTAG | 0.445 |
| TTAGGTTTCGGGACTTGGTTAGTGCTA | 3.46 |
| TTAGATATGAGTATCGATTAGTGCTAG | -0.0301 |
| GACGATTCCAGTTCCGAGACGTGCTAG | 1.29 |
| TCAAGTTTAATATCTAAGACTGTGCTA | -0.663 |
| GGCGATATCGGGTATCGAGACGTGCTA | -0.379 |
| TCATCTTCCCTTTTAAGACTGTGCTAG | 2.84 |
| AGCTCCCTTTCTCTCTGTGAGTGCTAG | 1.87 |
| TTAGGTTTCGGACTGGCTTAGTGCTAG | 3.12 |
| TTAGGTATCGCTCTCGGTTAGTGCTAG | 0.917 |
| TTAGGCCTCCTTCTCCTTTAGTGCTAG | 0.774 |
| CTAATTAGAATTTTCATTAAGTGCTAG | 0.106 |
| TCAAGTCTCATATTTATACTGTGCTAG | 0.526 |
| TTAGAACTGAGTCTCGTTTAGTGCTAG | 0.19 |
| TTAGAACTGGGGTATCGATAAGTGCTA | -0.273 |
| GACGATTCCAGGTTCGAGACGTGCTAG | 0.785 |
| TGAGGTATCGACACTGGGTTAGTGCTA | -0.489 |

Study 2
Target: RING finger protein unkempt homolog, zinc fingers 1-6, GST-SBP tag (UNK, Homo sapiens, UniProt Q9C0B0, residues 30-357)
Sequence of UniProt Q9C0B0 (30-357, looked up): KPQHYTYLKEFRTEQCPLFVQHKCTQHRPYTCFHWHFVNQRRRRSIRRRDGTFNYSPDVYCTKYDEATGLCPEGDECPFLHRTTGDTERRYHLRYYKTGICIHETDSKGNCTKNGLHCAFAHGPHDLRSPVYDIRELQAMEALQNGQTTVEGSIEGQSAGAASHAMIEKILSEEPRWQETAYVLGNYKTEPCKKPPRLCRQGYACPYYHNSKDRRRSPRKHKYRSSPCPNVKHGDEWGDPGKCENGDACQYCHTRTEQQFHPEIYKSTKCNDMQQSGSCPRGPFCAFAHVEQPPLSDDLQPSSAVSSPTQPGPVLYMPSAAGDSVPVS
Technique: RNA Bind-n-Seq
Molecule type: RNA
Medium: in vitro
Tested at: not given
Setting: RNA with constant flanks, human and mouse sites, ends assumed
Relative to: input RNA pool
Reading: higher = stronger binding
Constant ends, left off below: GGGAGUUCUACAGUCCGACGAUC … CAACAGAGGAUUGAGCAUCA
| Sequence | bound/input enrichment [ratio] |
| --- | --- |
| GCGUUCGCGGGGCCGAGGCCAUGGCUUUCUGGGCGGGGGGUUCGCCCAGCGUCGUGGACUAUUUCCCUAGCGAGGACUUCUACCGCUGCGGCUACUGCAAGAACGAGUCGGGCAGCCGCU | 0.238 |
| CCCAUGGAGGCGUCCAGCGAGCCGCCGCUGGAUGCUAAGUCCGAUGUCACCAACCAGCUUGUAGAUUUUCAGUGGAAACUGGGUAUGGCUGUGAGCUCAGACACUUGCAGAUCUCUUAAG | 0.144 |
| AAACUGUUCUACAGUGCAAAGAACACCAGCGAGCUCCUGUUUAAGAAAGAUAUCCUCGACUUAGUACAUGAAUUCCCUGAGAAGAUUUCUUGCAGUUUUCAUGUUACAAAACAGACAGCA | 0.13 |
| CUGAGCUUGGUGCUCAAUUUUAGAAAAAUCACCGCAUUCCUCUCUAGUUCCAAACCAUACACGGAGGCAGCUUCAAGCAAACAAUUAGAAAAUCAGAACCCCCAGGGCAGGCAGCUCCUU | 8.5 |
| CCCAAGCACUGUAGAGGAAGCUGUGCUCGCCUUAGAGCAUUUUUUUUCUUGCGUUUUGGUUUUAGGGGUGGGUGGGUUGUGGCACACACCUCUGAGGCCAGAGCCAUCGGGUUCACCCUC | 0.549 |
| AAGGUUUGGUGGUUGGCAUUAUACCACUGAUACAAAGUAUUAGCAAAGUAUAGUUCAAAUUAAGUGACAUGACCAAGAGCUUUUCUCUUAAAAAAGAUGGAUUUUAUUGUAAAUAGUUUC | 0.701 |
| GUCCCCGACUCCUUCCUCCCCCUUCCCUCCCCCUUUUUUUUGUUUUCCGUUCCCCUUUCCCCUCCCUUCCCUAUCCCCGACGACCGGAUCCUGAGGAGGCAGCUGCGGUGGCAGCUGCUG | 1.32 |
| CAAUAGAAGCUGUGGAUGAAUUCGCUUUUCUAGAAGGACUAUUUAACAAACUGCAAUCAACAGCAAUCAACAGCUAUGAACCAGCAACCUACCCUGCCUCUUGGGACCCUAGCAUUUAUA | 5.53 |

Study 3
Target: RNA binding protein fox-1 homolog 2, RRM domain, GST-SBP tag (RBFOX2, Homo sapiens, UniProt O43251-10, residues 100-194)
Technique: RNA Bind-n-Seq
Molecule type: RNA
Medium: in vitro
Tested at: 365 nM
Setting: natural RNA segment, single round, ends assumed
Relative to: no-protein control
Reading: higher = stronger binding
Constant ends, left off below: GGGAGUUCUACAGUCCGACGAUC … UGGAAUUCUCGGGUGCCAA
Target sequence (chain): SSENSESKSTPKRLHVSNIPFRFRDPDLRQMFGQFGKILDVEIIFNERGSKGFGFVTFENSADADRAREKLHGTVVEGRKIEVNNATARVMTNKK
| Sequence | RBNS enrichment (R) |
| --- | --- |
| AAAAUCUUUUAUAGGAGUGCAGUGCUCCUAUACAAAGGGAAGAUGAGCCAGCAGUCCAGGCUCCUCCUCAGUUACAGUGCUGACAUAAUAAACAGUGACAGAUCAACAGU | 0.353 |
| GGAAGUGGAUAGAUUGCUUCAGCAAAGUGAACUGUGAGAUCUCCAGGACAGAGGGAGAAAGAUCUGAUCCAAAUGAGAACAGAUUGGUUAUUGCAGGUAUCACAGCCUAA | 0.789 |
| UAAGCAGGCAAGGGUCACUGCAGGCAUGAAGCUUGGAUUGCUUCAGAUGGUUUGCCGUAUCGUUUUUCUUCCUUUUCCUUUUCUGGGGACUUGUUUCCAUUCAAUGACAA | 0.944 |
| UACUCCCCCAAGUUGGGGAAAGGAGGGGGAACCUACGAGAAAAACAGCUCAGGUUUUAUCACCGACUGGGAAUAGACAACCUCAAUGCUGAACCGCACUGGAGAAAAGGG | 0.413 |
| AACGAGGCCUCUGCAAGCCACUUUUCCAUGCCAAGCAUCCACCCGGCCCACAGGCAUGUUUCUGCCGCCACUCCGCAAGAUGGACAGGGAGCCAGCAGGCAGGCGGGAAG | 2.96 |
| UUUUUGGAAAUUUCCAUCAUCCUCAAGUCACGCAAAUACCAAUUUCACAUCGGAGCUGCGUGUGAAAUGGAUUCAGCAUUCCGCGCCCUUGCUUUACAAUUUUAGUCCUG | 0.345 |
| AAACUAUACACACUGCCCCCGACUCCAUGCAGUCUUGAGUGCCCUAAGUUGUCAGCCCAACAGAGUUUGGUAGACCUUGGGGGUCCCUGGCUUAUCUCUCCACCCCAAAC | 0.637 |
| CUUUUUUCUCAGUCCUAAUUUGAACAGGUCAAAGAUGUGUUCAGGCAUUCCAGGUAACAGGUGUGUAUGUAAAGUUAAAAAUAGGCUUUUUAGGAACUCACUCUUUAGAU | 0.374 |

Study 4
Target: Sal-like protein 4, full length isoform A (SALL4, Homo sapiens, UniProt Q9UJQ4, residues 1-1053)
Sequence of UniProt Q9UJQ4 (whole entry, looked up): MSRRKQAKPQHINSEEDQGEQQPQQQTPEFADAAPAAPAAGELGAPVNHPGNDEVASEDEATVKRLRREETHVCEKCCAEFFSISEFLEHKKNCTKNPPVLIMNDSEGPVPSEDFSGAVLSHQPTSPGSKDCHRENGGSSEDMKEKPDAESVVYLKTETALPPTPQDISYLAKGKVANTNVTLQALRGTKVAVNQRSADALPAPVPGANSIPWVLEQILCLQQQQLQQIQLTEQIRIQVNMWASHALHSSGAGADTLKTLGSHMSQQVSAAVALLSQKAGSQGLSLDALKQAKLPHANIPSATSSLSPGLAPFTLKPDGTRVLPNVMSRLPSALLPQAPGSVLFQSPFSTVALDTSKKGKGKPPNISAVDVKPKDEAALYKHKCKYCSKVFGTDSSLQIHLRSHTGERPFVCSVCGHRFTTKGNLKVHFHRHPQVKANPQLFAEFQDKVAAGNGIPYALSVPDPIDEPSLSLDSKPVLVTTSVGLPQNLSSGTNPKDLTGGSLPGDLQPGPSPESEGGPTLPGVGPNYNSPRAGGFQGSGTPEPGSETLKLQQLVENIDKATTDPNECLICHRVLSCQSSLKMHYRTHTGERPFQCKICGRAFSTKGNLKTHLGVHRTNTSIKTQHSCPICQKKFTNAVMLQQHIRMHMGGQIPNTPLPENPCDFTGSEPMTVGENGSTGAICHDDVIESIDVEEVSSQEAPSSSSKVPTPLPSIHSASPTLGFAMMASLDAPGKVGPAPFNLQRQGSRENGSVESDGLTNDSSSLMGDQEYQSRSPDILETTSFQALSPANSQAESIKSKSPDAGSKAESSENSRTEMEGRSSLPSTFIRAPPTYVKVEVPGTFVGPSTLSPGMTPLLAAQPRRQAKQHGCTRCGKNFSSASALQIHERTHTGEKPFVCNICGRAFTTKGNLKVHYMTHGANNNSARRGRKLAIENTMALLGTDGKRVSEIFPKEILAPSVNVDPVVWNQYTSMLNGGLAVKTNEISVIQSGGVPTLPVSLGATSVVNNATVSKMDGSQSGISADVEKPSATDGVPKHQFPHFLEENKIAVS
Technique: universal PBM
Molecule type: double-stranded DNA, one strand shown
Medium: in vitro
Tested at: 600 nM
Setting: 8-mer, flanks averaged, mean of replicates
Reading: higher = stronger binding
| Sequence | E-score |
| --- | --- |
| CTCCCGAG | -0.239 |
| AATGTACG | 0.00192 |
| ACTAGGGG | -0.249 |
| ACTTAACT | 0.122 |
| GAATAAAC | 0.33 |
| CCAATTCA | 0.149 |
| CACTCAAC | 0.174 |
| AGATTAGA | 0.194 |
| CACAGAAG | -0.075 |
| CTTAGAAG | -0.0167 |
| GCAAGGAA | -0.168 |
| GTCACCGA | -0.282 |
| AGGTAGGA | -0.0132 |
| CGCCGTTA | -0.0314 |
| CAGCACCG | -0.312 |
| AGAGGCGA | -0.151 |

Excerpt of the above (study 2):
| Sequence | bound/input enrichment [ratio] |
| --- | --- |
| CUGAGCUUGGUGCUCAAUUUUAGAAAAAUCACCGCAUUCCUCUCUAGUUCCAAACCAUACACGGAGGCAGCUUCAAGCAAACAAUUAGAAAAUCAGAACCCCCAGGGCAGGCAGCUCCUU | 8.5 |
| CCCAUGGAGGCGUCCAGCGAGCCGCCGCUGGAUGCUAAGUCCGAUGUCACCAACCAGCUUGUAGAUUUUCAGUGGAAACUGGGUAUGGCUGUGAGCUCAGACACUUGCAGAUCUCUUAAG | 0.144 |
| CAAUAGAAGCUGUGGAUGAAUUCGCUUUUCUAGAAGGACUAUUUAACAAACUGCAAUCAACAGCAAUCAACAGCUAUGAACCAGCAACCUACCCUGCCUCUUGGGACCCUAGCAUUUAUA | 5.53 |
| AAGGUUUGGUGGUUGGCAUUAUACCACUGAUACAAAGUAUUAGCAAAGUAUAGUUCAAAUUAAGUGACAUGACCAAGAGCUUUUCUCUUAAAAAAGAUGGAUUUUAUUGUAAAUAGUUUC | 0.701 |
